Results gathered from unrelated publications.
Each numbered part is a random draw from the data of one study; scales do not carry over between parts.

Set 1
Target: Fragile X messenger ribonucleoprotein 1, C-terminal low-complexity region (Fmr1, Mus musculus, UniProt P35922)
Method: RNA Bind-n-Seq
Form: RNA
Sample: in vitro
Tested at: 200 nM
Notes: whole 134-nt RNA, ends assumed
With: 150 mM LiCl
Baseline: input library
Reading: higher = stronger binding
Quantity: log2 enrichment
All molecules: 7-deaza-guanosine replaces G
Constant ends, left off below: GGGAGUUCUACAGUCCGACGAUC … UGGAAUUCUCGGGUGUCAAGG
UUAGAAGAACCCGAAGAACCUAAAGUGCUAACACCAGAAGAACAAUUAGCAGAUAAACUGCGGCUAAAGAAAUUACAGGAAGAGUCAGAC: 0.778
AGUCCUGUGCUACACAUCGUAUGUACCGAAUCGGGUUUUUGGUUUUUGGGGUUUUUGGAAAGUAUUAUGUUACGCCGUUCGGAUCUGCAC: -1.5
CAAGUCCUGUGCUACACAUCGUAUGUACCGAAUCGGUUUUUGGAAAAAAAGGAGGAAAGUAUUAUGUUACGCCGUUCGGAUCUGCACUUC: -1.58
UCAAGUCCUGUGCUACACAUCGUAUGUACCGAAUCGGAAAAAGGUUUUUGGUGGAAAGUAUUAUGUUACGCCGUUCGGAUCUGCACUUCC: -1.35
AAGUCCUGUGCUACACAUCGUAUGUACCGAAUCGGAAAAAAAGGUUUUUGGUUUGGAAAGUAUUAUGUUACGCCGUUCGGAUCUGCACUU: -3.64
CCUGUGCUACACAUCGUAUGUACCGAAUCGGGGUUUUUUUGGGGUUUGGGGAAAAAGGGGAAAGUAUUAUGUUACGCCGUUCGGAUCUGC: -1.13
AGUCCUGUGCUACACAUCGUAUGUACCGAAUCGGGAAAAAAAGGGUUUGGGAAAGGGAAAGUAUUAUGUUACGCCGUUCGGAUCUGCACU: -2.24
GUCCUGUGCUACACAUCGUAUGUACCGAAUCGUGUGUGUGUGUGUGUGUGUGUGUGUGUAAAGUAUUAUGUUACGCCGUUCGGAUCUGCA: -0.28

Set 2
Target: RNA binding protein fox-1 homolog 2, RRM domain, GST-SBP tag (RBFOX2, Homo sapiens, UniProt O43251-10, residues 100-194)
Method: RNA Bind-n-Seq
Form: RNA
Sample: in vitro
Tested at: 365 nM
Notes: natural RNA segment, single round, ends assumed
Baseline: no-protein control
Reading: higher = stronger binding
Quantity: RBNS enrichment (R)
Constant ends, left off below: GGGAGUUCUACAGUCCGACGAUC … UGGAAUUCUCGGGUGCCAA
Residues (chain): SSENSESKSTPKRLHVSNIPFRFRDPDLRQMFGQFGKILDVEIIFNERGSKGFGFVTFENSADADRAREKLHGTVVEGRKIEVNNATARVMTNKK
CCGGUGAGCCUGGGGCUGUUGCUUAGGGUCUUCUGGGUGGACACGUGGAGAAAGAGAAGGCAAACGUUGGAACACUAGGAAAAGCUAGAAAUUCAGACAACACACAUGGA: 0.381
AGAAAGAAUUGUCCUCCUGUAGGUUCCAUUCCUUCGGAUGGGCCUACCUUACCAUUGUUAGGACAGCGUGAGUAGACCUGCUUGCUCUUCUCACUUUCCUCAUUGGCUUA: 3.93
CCUGUUUUGAAGUGCUAUUACCUUUCUCAGUUACCAGAAUCUUGCUGCUAAAGUUGCAAGUGAUUGAUAAUGGAUUUUUAACAGAGAAGUCUUUGUUUUUGAAAAACAAA: 0.45
UUUAGCCAAGACUUGUCUUGUCUCAAAGCCAAGACUCAGCAGUACAUGGAUUCUGAGAAGUCCAGGGUCUGAAUUGUUGUCUCUGAUUACUGGAAGGACAGGUUAACUGA: 0.294
GAGUCGUAUGACAGCCACAAGGCUGGAAAUCACAAUGCACUUGCUGCCGUUCUGACCUGGGACUGGGCCACUUCUUCAGUUCCUAAUGCCAGGCCUGGCCUCCUGAUGCC: 0.309
CCAUUUGUGAUCAGCAUUGUGACUUGGAGAUAAUAAAAUUUAGACUAUAAACUUGGCUCCCUUGCCAGUGUUUUGCAUGAGUCUUGAUUUGGGAGGGAGGGAAGAGGACU: 32.9
GAGGAGUGAAAACCAUGCAAGUAGAUGCUUACUGCCUUGACAUGGGAAUUACGGUUAUGACAGAACGAAAGGUGACUGACAGGUGCUGCCCCUCCGAGAAGGUGGCUGCG: 2.33
AAUAUCCAGUCAUUAAGGAGUUGUCACUCUUCAUCAGAGUCACCGGACCUAUGCAAUUACAUGGGCUCCAUAUCAAAUGGCAUGGUGUCUCUACUGCUGAUUCUCACCUU: 0.18

Set 3
Target: Sal-like protein 4, full length isoform A (SALL4, Homo sapiens, UniProt Q9UJQ4, residues 1-1053)
Chain of UniProt Q9UJQ4 (whole entry, looked up): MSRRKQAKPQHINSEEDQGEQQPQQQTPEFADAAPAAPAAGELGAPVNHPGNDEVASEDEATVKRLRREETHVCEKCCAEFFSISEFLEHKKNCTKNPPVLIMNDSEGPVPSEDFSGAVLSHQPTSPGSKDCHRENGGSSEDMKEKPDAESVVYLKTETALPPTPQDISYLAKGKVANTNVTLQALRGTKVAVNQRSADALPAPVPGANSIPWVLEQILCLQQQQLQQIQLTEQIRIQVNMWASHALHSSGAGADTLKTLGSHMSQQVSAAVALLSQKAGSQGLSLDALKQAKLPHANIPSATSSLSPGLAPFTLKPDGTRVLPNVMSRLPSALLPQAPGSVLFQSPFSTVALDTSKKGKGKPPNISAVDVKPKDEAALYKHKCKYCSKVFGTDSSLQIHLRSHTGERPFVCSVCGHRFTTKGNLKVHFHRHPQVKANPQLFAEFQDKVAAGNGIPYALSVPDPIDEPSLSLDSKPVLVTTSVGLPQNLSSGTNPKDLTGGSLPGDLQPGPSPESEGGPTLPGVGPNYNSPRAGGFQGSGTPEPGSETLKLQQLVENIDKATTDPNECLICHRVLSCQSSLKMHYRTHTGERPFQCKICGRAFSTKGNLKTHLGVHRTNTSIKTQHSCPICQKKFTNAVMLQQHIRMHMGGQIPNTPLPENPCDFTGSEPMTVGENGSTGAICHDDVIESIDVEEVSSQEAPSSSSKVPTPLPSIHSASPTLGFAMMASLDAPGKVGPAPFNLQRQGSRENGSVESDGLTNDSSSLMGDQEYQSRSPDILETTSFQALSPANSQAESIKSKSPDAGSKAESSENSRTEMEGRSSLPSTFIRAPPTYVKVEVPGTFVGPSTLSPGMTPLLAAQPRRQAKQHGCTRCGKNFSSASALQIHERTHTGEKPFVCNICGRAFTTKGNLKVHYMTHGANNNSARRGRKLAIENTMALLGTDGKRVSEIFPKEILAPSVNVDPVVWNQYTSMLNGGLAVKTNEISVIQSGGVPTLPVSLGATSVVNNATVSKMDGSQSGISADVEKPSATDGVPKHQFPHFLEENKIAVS
Method: universal PBM
Form: double-stranded DNA, one strand shown
Sample: in vitro
Tested at: 600 nM
Notes: 8-mer, flanks averaged, mean of replicates
Reading: higher = stronger binding
Quantity: E-score
GTGATGAA: 0.0405
AGGGAACG: -0.242
AAGCAATT: 0.315
ACTAATTG: 0.191
ACCTGACC: -0.113
GCGTACGC: -0.112
CATAGAGG: 0.0384
CCTACGTA: 0.15
GCTGGACC: -0.309
ACTACAAT: 0.209
TCGACAGA: 0.117
GCGTTTAA: 0.19
AAACGAGT: 0.136
CACATGCG: -0.194
AATGTGAG: 0.18
CATATGCA: 0.214

Set 4
Target: Prothrombin, mature alpha-thrombin (F2, Homo sapiens, UniProt P00734)
Method: aptamer microarray, sandwich
Form: DNA with 2'F-ANA
Sample: in vitro
Tested at: 200 nM
Notes: whole 15-mer aptamer, many near background
With: Cy3 exosite-II aptamer, 400 nM
Reading: higher = stronger binding
Quantity: mean fluorescence intensity
Strand: GGTTGGTGTGGTTGG
2'F-ANA at 3 6 10 12 13: 522 a.u.
2'F-ANA at 3 4 10 11 13 14: 200 a.u.
2'F-ANA at 1 8 13 14: 106 a.u.
2'F-ANA at 2 3 4 5 6 7 9 10 13 15: 49.8 a.u.
2'F-ANA at 1 3 4 6 7 13: 139 a.u.
2'F-ANA at 1 3 4 6 7: 206 a.u.
2'F-ANA at 1 3 6 7 8 9 10 11 14 15: 126 a.u.
2'F-ANA at 1 5 7 8 10 13: 44.4 a.u.
2'F-ANA at 2 4 5 7 8 11 13 14: 47.8 a.u.
2'F-ANA at 1 2 4 5 6 8 9 13 15: 50.2 a.u.
2'F-ANA at 2 4 6 7 9 10 11 12 13 15: 76.5 a.u.
2'F-ANA at 2 3 4 5 6 7 9 10 13 14: 124 a.u.
2'F-ANA at 2 7 12 14 15: 216 a.u.
2'F-ANA at 1 6 8 10 13 14: 48.6 a.u.
2'F-ANA at 1 2 4 7 8 11 15: 162 a.u.
2'F-ANA at 2 6 7 9 10 11 13 14 15: 108 a.u.
2'F-ANA at 1 2 3 4 5 7 8 10 11: 52.7 a.u.
2'F-ANA at 1 2 3 7 9 12: 492 a.u.
2'F-ANA at 1 2 3 5 8 10 11 12 13 14 15: 50.7 a.u.
2'F-ANA at 2 4 6 8 9 10 12 13 14 15: 60.3 a.u.
2'F-ANA at 2 4 6 7 10 12 13 14: 61.3 a.u.
2'F-ANA at 1 2 5 11 15: 52.5 a.u.
2'F-ANA at 1 2 4 5 6 7 8 11: 58.9 a.u.
2'F-ANA at 1 4 7 8 10 11 12 13 14 15: 86 a.u.

Some of these lines once more (set 4):
2'F-ANA at 2 3 4 5 6 7 9 10 13 14: 124 a.u.
2'F-ANA at 1 2 3 4 5 7 8 10 11: 52.7 a.u.
2'F-ANA at 1 5 7 8 10 13: 44.4 a.u.
2'F-ANA at 1 2 3 7 9 12: 492 a.u.
2'F-ANA at 3 4 10 11 13 14: 200 a.u.
2'F-ANA at 2 3 4 5 6 7 9 10 13 15: 49.8 a.u.
2'F-ANA at 1 6 8 10 13 14: 48.6 a.u.
2'F-ANA at 1 2 4 5 6 8 9 13 15: 50.2 a.u.
2'F-ANA at 1 2 4 7 8 11 15: 162 a.u.
